Measurements pooled from the literature.
Each line is one published result; not all experiments were run side by side. Several values in a cell are separate wells, animals, samples, runs or records.

Structure (SMILES)	assay	test system	conditions	scale	endpoint	value
CC[C@H](C)[C@@H]([C@@H](CC(=O)N1CCC[C@H]1[C@H](OC)[C@@H](C)C(=O)N[C@H](C)[C@@H](O)c1ccccc1)OC)N(C)C(=O)[C@@H](NC(=O)[C@@H](NC)C(C)C)C(C)C	–	C57BL/6 mouse, subcutaneous Lewis lung carcinoma	dose not given, end of study	–	tumour weight	decreased
C[C@]12CC[C@H](O)C[C@H]1CC[C@@H]1[C@@H]2CC[C@]2(C)[C@@H](c3ccc(=O)oc3)CC[C@]12O	–	female nude mouse LCC2 xenograft	0.5 mg/kg, day 1, tamoxifen-resistant	–	tumour volume	28.2 mm3 and 18.9 mm3 and 29.8 mm3 and 31.8 mm3 and 26.1 mm3 and 16.1 mm3 and 17.2 mm3
O=C1[O][Pt]2([NH][C@@H]3CCCC[C@H]3[NH]2)[O]C1=O	–	NSG mouse HCT-116 xenograft	intraperitoneal, 7.5 mg/kg	–	tumour weight	0.638 g and 0.675 g and 0.58 g and 0.868 g and 1.01 g
Cc1n[nH]cc1-c1cc2nc([C@@H]3CC4CCN3CC4)[nH]c(=O)c2s1	–	mouse COLO 205 xenograft	oral, 20 mg/kg twice daily, 7 days after dosing end, 28 days	–	tumour growth inhibition	41.6%
CC[C@H](C)[C@@H]1NC(=O)[C@H](CCCNC(=N)N)NC(=O)C[C@@H](c2cccc3ccccc23)NC(=O)[C@@H]2CSSC[C@H](NC(=O)C[C@@H](c3cccc4ccccc34)NC(=O)[C@H](CCCNC(=N)N)NC(=O)[C@@H]3CCCN3C(=O)[C@@H]3CCCN3C1=O)C(=O)N[C@@H](Cc1ccccc1)C(=O)N1CCC[C@H]1C(=O)N[C@@H](CC(=O)O)C(=O)N[C@@H](CC(=O)O)C(=O)N[C@@H](Cc1ccccc1)C(=O)N2	–	Calu-3 NSCLC xenograft, athymic Foxn1 nude mouse	oral, 50 mg/kg	baseline: vehicle	tumour volume difference onset	24 days
C=CC(=O)N[C@H]1C=C(C)c2c(-c3cnc4ccccc4c3)c3c(N)ncnc3n2C1	–	mouse NCI-H2073 xenograft	oral, 100 mg/kg once daily, day 14	–	tumour growth inhibition	92%
CC[C@H](C)[C@H](NC(=O)[C@H](CCCCN)NC(=O)[C@@H](NC(=O)[C@H](CCCNC(=N)N)NC(=O)[C@@H](NC(=O)[C@@H](CCCNC(=N)N)NC(=O)[C@@H](CCCNC(=N)N)NC(=O)[C@@H](CCCNC(=N)N)NC(=O)[C@@H](CCCNC(=N)N)NC(=O)[C@@H](CCCNC(=N)N)NC(=O)[C@H](N)CCCNC(=N)N)[C@@H](C)O)[C@@H](C)O)C(=O)N[C@@H](CC(=O)O)C(=O)N[C@@H](Cc1c[nH]c2ccccc12)C(=O)NC(C)(C)C(=O)N[C@@H](CCCCN)C(=O)N[C@H](C(=O)N[C@@H](CC(C)C)C(=O)NC(C)(C)C(=O)N[C@@H](CCCCN)C(=O)NCCCCCC(=O)NCCCC[C@H](NC(=O)CCCCCNC(=O)[C@H](CCCCN)NC(=O)C(C)(C)NC(=O)[C@H](CC(C)C)NC(=O)[C@@H](NC(=O)[C@H](CCCCN)NC(=O)C(C)(C)NC(=O)[C@H](Cc1c[nH]c2ccccc12)NC(=O)[C@H](CC(=O)O)NC(=O)[C@@H](NC(=O)[C@H](CCCCN)NC(=O)[C@@H](NC(=O)[C@H](CCCNC(=N)N)NC(=O)[C@@H](NC(=O)[C@@H](CCCNC(=N)N)NC(=O)[C@@H](CCCNC(=N)N)NC(=O)[C@@H](CCCNC(=N)N)NC(=O)[C@@H](CCCNC(=N)N)NC(=O)[C@@H](CCCNC(=N)N)NC(=O)[C@H](N)CCCNC(=N)N)[C@@H](C)O)[C@@H](C)O)[C@@H](C)CC)[C@@H](C)CC)C(N)=O)[C@@H](C)CC	–	B16-F10, C57BL/6J mouse syngeneic melanoma	intravenous, 50 mg/kg, up to 8 days, dosed days 0 to 7	–	tumour growth	inhibited
COc1cc2c3c(n(CCCNCCO)c(=O)c2cc1OC)-c1cc2c(cc1C3=O)OCO2	bioluminescence imaging	GL261-Luc, mouse orthotopic glioblastoma	intravenous, 20 mg/kg, day 21	baseline: control	tumour growth reduction	57.5%
C[C@]12CC[C@H](O)CC1=CC[C@@H]1[C@@H]2CC[C@]2(C)C(n3cnc4ccccc43)=CC[C@@H]12.Cl	–	mouse CWR22Rv1 xenograft	oral, 96 mg/kg once daily, 16 days, 5 days per week	–	tumour growth inhibition	148%
CC1(C)C(=CC=CC=CC=CC2=[N+](CCC(=O)NCCCC[C@H](NC(=O)CN3CCN(CC(=O)O)CCN(CC(=O)O)CCN(CC(=O)O)CC3)C(=O)NCC(=O)NCCCC[C@@H]3NC(=O)[C@@H](Cc4ccc(O)cc4)NC(=O)[C@H](CC(=O)O)NC(=O)CNC(=O)[C@H](CCCNC(=N)N)NC3=O)c3ccc4ccccc4c3C2(C)C)N(CCC(=O)O)c2ccc3ccccc3c21 (single isomer, unassigned)	NIR fluorescence imaging	nude mouse integrin αvβ3-positive tumour	intravenous, dose not given	–	tumour visualisation time	≤ 6 h

Excerpt of the above:
Structure (SMILES)	assay	test system	conditions	scale	endpoint	value
C[C@]12CC[C@H](O)CC1=CC[C@@H]1[C@@H]2CC[C@]2(C)C(n3cnc4ccccc43)=CC[C@@H]12.Cl	–	mouse CWR22Rv1 xenograft	oral, 96 mg/kg once daily, 16 days, 5 days per week	–	tumour growth inhibition	148%
